Published values collected from several papers.
Protocols differ between the studies behind these lines. ± marks the error that the study gave.
CTSS: Cathepsin S (CTSS, Homo sapiens, UniProt P25774)
Sigmar1: Sigma non-opioid intracellular receptor 1 (Sigmar1, Mus musculus, UniProt O55242)
Sequence of UniProt O55242 (whole entry, looked up): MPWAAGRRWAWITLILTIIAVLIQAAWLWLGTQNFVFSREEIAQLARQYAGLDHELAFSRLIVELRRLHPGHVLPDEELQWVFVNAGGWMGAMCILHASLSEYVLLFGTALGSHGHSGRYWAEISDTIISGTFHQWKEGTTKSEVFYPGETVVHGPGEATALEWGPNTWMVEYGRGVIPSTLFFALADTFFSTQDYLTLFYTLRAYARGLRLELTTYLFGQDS
Sequence of UniProt P10632 (whole entry, looked up): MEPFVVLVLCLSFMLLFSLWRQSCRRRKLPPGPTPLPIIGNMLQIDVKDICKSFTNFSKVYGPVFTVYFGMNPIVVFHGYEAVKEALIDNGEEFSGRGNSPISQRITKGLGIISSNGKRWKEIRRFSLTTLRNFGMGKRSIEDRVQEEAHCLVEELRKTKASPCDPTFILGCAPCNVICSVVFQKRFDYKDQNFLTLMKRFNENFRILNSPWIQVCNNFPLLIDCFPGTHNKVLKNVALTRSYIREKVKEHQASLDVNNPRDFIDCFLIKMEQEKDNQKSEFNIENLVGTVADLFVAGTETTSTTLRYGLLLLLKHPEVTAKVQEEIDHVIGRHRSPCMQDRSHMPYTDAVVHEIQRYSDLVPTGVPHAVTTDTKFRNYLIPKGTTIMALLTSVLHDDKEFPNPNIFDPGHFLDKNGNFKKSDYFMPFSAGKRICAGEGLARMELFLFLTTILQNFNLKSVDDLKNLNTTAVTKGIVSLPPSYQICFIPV
Sequence of UniProt O75469 (whole entry, looked up): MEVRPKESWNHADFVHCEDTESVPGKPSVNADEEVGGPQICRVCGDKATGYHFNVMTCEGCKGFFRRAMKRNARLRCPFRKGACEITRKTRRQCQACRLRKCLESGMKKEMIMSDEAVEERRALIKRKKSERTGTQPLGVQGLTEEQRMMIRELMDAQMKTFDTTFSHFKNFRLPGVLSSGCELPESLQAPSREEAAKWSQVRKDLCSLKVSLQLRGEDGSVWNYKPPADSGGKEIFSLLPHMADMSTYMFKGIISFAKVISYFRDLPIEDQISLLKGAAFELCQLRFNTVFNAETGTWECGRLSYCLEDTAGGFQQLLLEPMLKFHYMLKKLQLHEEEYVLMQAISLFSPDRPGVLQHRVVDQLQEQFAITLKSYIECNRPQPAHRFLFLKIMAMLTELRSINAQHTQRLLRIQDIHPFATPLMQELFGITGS
Sequence of UniProt P08684 (whole entry, looked up): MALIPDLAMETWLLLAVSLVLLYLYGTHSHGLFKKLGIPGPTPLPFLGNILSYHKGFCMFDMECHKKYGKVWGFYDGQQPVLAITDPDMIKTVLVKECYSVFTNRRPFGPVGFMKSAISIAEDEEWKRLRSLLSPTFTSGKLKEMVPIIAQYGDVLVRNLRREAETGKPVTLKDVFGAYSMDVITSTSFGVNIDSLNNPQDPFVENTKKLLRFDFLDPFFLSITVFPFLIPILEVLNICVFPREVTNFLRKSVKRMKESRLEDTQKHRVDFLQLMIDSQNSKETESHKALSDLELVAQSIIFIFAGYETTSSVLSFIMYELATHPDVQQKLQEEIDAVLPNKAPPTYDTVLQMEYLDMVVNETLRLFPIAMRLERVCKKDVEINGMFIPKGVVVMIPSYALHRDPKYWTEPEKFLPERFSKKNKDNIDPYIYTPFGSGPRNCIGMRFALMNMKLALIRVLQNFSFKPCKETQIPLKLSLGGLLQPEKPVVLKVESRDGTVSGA
Sequence of UniProt P27487 (whole entry, looked up): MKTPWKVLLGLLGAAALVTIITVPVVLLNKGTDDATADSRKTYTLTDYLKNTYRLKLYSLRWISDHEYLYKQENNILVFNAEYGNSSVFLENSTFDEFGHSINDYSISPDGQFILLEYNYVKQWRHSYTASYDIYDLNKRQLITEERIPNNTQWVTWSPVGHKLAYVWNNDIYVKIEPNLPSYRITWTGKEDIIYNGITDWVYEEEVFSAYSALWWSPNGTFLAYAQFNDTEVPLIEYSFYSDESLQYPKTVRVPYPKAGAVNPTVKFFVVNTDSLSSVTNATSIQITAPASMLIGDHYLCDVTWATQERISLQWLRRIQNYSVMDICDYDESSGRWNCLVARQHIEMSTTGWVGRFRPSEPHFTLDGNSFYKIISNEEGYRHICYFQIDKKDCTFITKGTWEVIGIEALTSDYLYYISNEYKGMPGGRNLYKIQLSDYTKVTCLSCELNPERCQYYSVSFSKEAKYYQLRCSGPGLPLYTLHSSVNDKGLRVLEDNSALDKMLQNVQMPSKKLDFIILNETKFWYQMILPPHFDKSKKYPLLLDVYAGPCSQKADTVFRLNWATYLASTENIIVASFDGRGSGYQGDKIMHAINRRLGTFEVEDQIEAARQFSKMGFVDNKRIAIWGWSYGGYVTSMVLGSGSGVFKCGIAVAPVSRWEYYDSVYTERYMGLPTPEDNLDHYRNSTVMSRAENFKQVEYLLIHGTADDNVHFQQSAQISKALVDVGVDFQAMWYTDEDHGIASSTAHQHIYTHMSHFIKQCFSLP
Sequence of UniProt Q08499 (whole entry, looked up): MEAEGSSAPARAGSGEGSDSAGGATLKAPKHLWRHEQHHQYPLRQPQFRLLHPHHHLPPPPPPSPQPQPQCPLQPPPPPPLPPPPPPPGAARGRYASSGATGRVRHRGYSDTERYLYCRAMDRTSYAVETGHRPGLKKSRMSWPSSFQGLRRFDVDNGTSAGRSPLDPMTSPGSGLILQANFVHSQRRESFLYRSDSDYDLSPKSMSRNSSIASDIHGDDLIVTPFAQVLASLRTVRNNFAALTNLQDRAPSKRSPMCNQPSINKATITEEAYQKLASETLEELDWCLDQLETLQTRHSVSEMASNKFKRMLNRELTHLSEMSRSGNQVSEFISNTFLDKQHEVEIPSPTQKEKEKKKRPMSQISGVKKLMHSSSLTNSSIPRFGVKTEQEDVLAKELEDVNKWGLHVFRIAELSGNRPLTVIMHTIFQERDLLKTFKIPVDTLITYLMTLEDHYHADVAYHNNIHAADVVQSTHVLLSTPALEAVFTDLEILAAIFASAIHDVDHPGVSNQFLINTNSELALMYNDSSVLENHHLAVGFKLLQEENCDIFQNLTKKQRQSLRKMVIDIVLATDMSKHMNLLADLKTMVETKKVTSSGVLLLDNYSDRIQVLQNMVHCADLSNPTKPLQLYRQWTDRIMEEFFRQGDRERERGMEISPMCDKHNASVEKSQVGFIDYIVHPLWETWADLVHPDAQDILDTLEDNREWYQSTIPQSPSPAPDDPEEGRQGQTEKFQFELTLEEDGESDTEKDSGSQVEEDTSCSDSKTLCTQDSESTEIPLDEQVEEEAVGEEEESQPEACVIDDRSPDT
Sequence of UniProt P24463 (whole entry, looked up): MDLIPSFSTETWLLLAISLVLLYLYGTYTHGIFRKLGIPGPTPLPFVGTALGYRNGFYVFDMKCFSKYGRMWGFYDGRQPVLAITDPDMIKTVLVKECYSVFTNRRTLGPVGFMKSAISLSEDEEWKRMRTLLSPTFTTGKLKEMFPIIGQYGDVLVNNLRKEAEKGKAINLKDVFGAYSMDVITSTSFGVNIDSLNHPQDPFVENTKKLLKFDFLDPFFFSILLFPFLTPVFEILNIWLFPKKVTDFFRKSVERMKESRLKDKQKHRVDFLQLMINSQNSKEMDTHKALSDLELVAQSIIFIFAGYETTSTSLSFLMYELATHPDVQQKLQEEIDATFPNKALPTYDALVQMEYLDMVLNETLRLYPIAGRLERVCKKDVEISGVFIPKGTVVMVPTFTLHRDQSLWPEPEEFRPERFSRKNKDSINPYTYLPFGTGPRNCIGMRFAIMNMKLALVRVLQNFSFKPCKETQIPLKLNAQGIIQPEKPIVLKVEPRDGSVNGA

`NC(=O)N/N=C/c1ccccn1`: “log stability constant” 16.1 (Fe2+ complex; potentiometric titration; 25 °C).
For `C[C@H](NC(=O)[C@H](Cc1ccccc1)NC(=O)[C@H](CO)NC(=O)[C@H](CO)NC(=O)[C@@H](NC(=O)[C@H](CCCNC(=N)N)NC(=O)[C@@H]1CCCN1C(=O)[C@H](CCCNC(=N)N)NC(=O)CN)[C@@H](C)O)C(=O)N[C@@H](CCC(=O)O)C(=O)NCC(=O)O`, “time to degradation” read ≤ 0.5 h (pronase; substrate).
For `COc1cc(-c2nc3ccccc3s2)cc(CN2Cc3cccc(n3)CN(CC(=O)O)Cc3cccc(n3)C2)c1O`, the pCu was 12 (copper(2+) ion; Cu2+ binding, from titration constants; aqueous solution; 50 µM, pH 6.6, Cu:ligand 1:1, equal totals).
For `O=c1c(/C=N/NC(=S)N/N=C/c2ccccn2)coc2ccccc12`, “log stability constant” read 17.9 (Fe2+ complex; potentiometric titration; 25 °C).
`CC(=O)N[C@H](C(=O)N[C@H](C(=O)N[C@@H](CCCNC(=N)N)C(=O)N1Cc2ccccc2C[C@H]1C(=O)N[C@@H](Cc1ccccc1)C(N)=O)C1CCCCC1)C(C)C` gave a half-life of > 240 min (CTSS; substrate; isolated enzyme in acetate buffer; 1 mg/mL, pH 5.5, 0.30 U enzyme per µmol compound).
`NC(=S)N/N=C/c1ccccn1` — result for “log stability constant”: 17.1 (Fe2+ complex; potentiometric titration; 25 °C).
The tissue uptake of `[64Cu+2].c1cnc(CNCc2ccc(CN3CCCN4CCNCCCN(CC4)CC3)cc2)nc1` is reported as 1.62 ± 0.15 %ID/g (CXCR4; NOD/SCID mouse, U87 and U87-stb-CXCR4 xenografts, heart; iv, 60 min, ex vivo).
For `NS(=O)(=O)Nc1ncnc(OCCOc2ncc(Br)cn2)c1-c1ccc(Br)cc1`, “contribution to clearance” read 100% (Cytochrome P450 3A12 (Canis lupus familiaris, UniProt P24463); refers to: compound formation; dog female).
With `[64Cu+2].c1ccc(CNCc2ccc(CN3CCCN4CCNCCCN(CC4)CC3)cc2)nc1` the tissue uptake was 39.7 ± 4.03 %ID/g (CXCR4; NOD/SCID mouse, U87 and U87-stb-CXCR4 xenografts, kidney; iv, 60 min, ex vivo).
For `[11CH3]Oc1ccc(Cc2cn[nH]c2)nc1-c1cccc([N+](=O)[O-])c1`, the brain radioactivity was ~2 SUV (PDE4D (Homo sapiens, UniProt Q08499); PET; concentration not given, 30 to 120 min, baseline scan).
`O=c1c(/C=N/NC(=S)N/N=C/c2ccccc2O)coc2ccccc12` — result for “log stability constant”: 17.4 (Fe2+ complex; potentiometric titration; 25 °C).
`CCC(=O)N(C)c1ccc(Cl)c(Cl)c1` has a fold activation of 0.86 fold (NR1I2 (Homo sapiens, UniProt O75469); reporter gene, agonist; 10 µM; baseline: vehicle).
`C[C@H]1C[C@@H](Oc2cccc(F)n2)CCN1Cc1cnc(N[11C](C)=O)s1` — result for “time to peak uptake”: ~45 min (O-GlcNAcase (Macaca mulatta, UniProt F6QIP2); PET; rhesus monkey, cerebellum; baseline).
The half-life of `CC[C@H](C)[C@H](NC(=O)[C@H](Cc1ccccc1)NC(=O)[C@H](CCC(=O)O)NC(=O)[C@H](CCCCN)NC(=O)[C@H](C)NC(=O)[C@H](C)NC(=O)[C@H](CCC(N)=O)NC(=O)CNC(=O)[C@H](CCC(=O)O)NC(=O)[C@H](CC(C)C)NC(=O)[C@H](Cc1ccc(O)cc1)NC(=O)[C@H](CO)NC(=O)[C@H](CO)NC(=O)[C@@H](NC(=O)[C@H](CC(=O)O)NC(=O)[C@H](CO)NC(=O)[C@@H](NC(=O)[C@H](Cc1ccccc1)NC(=O)[C@@H](NC(=O)CNC(=O)[C@H](CCC(=O)O)NC(=O)[C@H](C)NC(=O)[C@@H](N)Cc1c[nH]cn1)[C@@H](C)O)[C@@H](C)O)C(C)C)C(=O)N[C@@H](C)C(=O)N[C@@H](Cc1c[nH]c2ccccc12)C(=O)N[C@@H](CC(C)C)C(=O)N[C@H](C(=O)N[C@@H](CCCNC(=N)N)C(=O)NCC(=O)N[C@@H](CCCNC(=N)N)C(=O)NCC(=O)O)C(C)C` is reported as ~18 min (DPP4 (Homo sapiens, UniProt P27487); substrate, HPLC-UV; pH 7.4, 37 °C).
With `CSCC[C@H](NC(=O)[C@@H]1CCCN1C(=O)[C@@H](COC(C)(C)C)NC(=O)[C@@H](COC(C)(C)C)NC(=O)CNC(=O)CN1CCN(CC(=O)OC(C)(C)C)CCN(CC(=O)OC(C)(C)C)CCN(CC(=O)OC(C)(C)C)CC1)C(=O)NCC(=O)N[C@@H](CC(C)C)C(=O)N1CCC[C@H]1C(=O)O` the fraction metabolized was 11% (CTSS; cleavage, substrate; 24 h, pH 6.0, room temperature, un-metalated, start of time course).
The pCu of `COc1cc(-c2nc3ccccc3s2)cc(CN2CCN(C)CCN(C)CC2)c1O` is reported as 12.8 (copper(2+) ion; Cu2+ binding, from titration constants; aqueous solution; 50 µM, pH 6.6, Cu:ligand 1:1, equal totals).
For `[11CH3]N1CCN(CCCOc2ccc(=O)n(-c3ccc(Cl)c(Cl)c3)n2)CC1`, the Tmax was ~5 min (Sigmar1; radiotracer; mouse BALB/c male, whole brain; intravenous).
For `COc1ccc2cc(NC(=O)c3cc(-c4ccncc4)nc4ccccc34)ccc2c1`, the Km was 0.6 ± 0.1 µM (Cytochrome P450 3A4 (CYP3A4, Homo sapiens, UniProt P08684); substrate, LC-MS, refers to: hydroxylated metabolite M1; baculosomes).
With `COc1cc(-c2nc3ccccc3s2)cc(CN2Cc3cccc(n3)CN(C)Cc3cccc(n3)C2)c1O` the pCu was 12.3 (copper(2+) ion; Cu2+ binding, from titration constants; aqueous solution; 50 µM, pH 7.4, Cu:ligand 1:1, equal totals).
With `[11CH3]Oc1ccc(-n2nc(OCCCN3CCCCC3)ccc2=O)cc1` the maximum uptake was 6.48 %ID/cc (Sigmar1; radiotracer; mouse BALB/c male, whole brain; intravenous, early).
`C=CC(=O)Nc1cc(Nc2nccc(-c3cn(C)c4ccccc34)n2)c(OCC(F)(F)F)nc1N(C)CCN(C)C`: “activity vs control” 95.3% (Cytochrome P450 2C8 (CYP2C8, Homo sapiens, UniProt P10632); enzyme activity, inhibitor; human, liver microsomes; 10 µM).
`COc1cc(-c2nc3ccccc3s2)cc(CN2Cc3cccc(n3)CNCc3cccc(n3)C2)c1O` gave a pCu of 13.5 (copper(2+) ion; Cu2+ binding, from titration constants; aqueous solution; 50 µM, pH 7.4, Cu:ligand 1:1, equal totals).

Excerpt of the above:
The pCu of `COc1cc(-c2nc3ccccc3s2)cc(CN2CCN(C)CCN(C)CC2)c1O` is reported as 12.8 (copper(2+) ion; Cu2+ binding, from titration constants; aqueous solution; 50 µM, pH 6.6, Cu:ligand 1:1, equal totals).
With `CSCC[C@H](NC(=O)[C@@H]1CCCN1C(=O)[C@@H](COC(C)(C)C)NC(=O)[C@@H](COC(C)(C)C)NC(=O)CNC(=O)CN1CCN(CC(=O)OC(C)(C)C)CCN(CC(=O)OC(C)(C)C)CCN(CC(=O)OC(C)(C)C)CC1)C(=O)NCC(=O)N[C@@H](CC(C)C)C(=O)N1CCC[C@H]1C(=O)O` the fraction metabolized was 11% (CTSS; cleavage, substrate; 24 h, pH 6.0, room temperature, un-metalated, start of time course).
`C=CC(=O)Nc1cc(Nc2nccc(-c3cn(C)c4ccccc34)n2)c(OCC(F)(F)F)nc1N(C)CCN(C)C`: “activity vs control” 95.3% (Cytochrome P450 2C8 (CYP2C8, Homo sapiens, UniProt P10632); enzyme activity, inhibitor; human, liver microsomes; 10 µM).
